Results pooled from the literature.
Protocols differ between the studies behind these lines. “And” joins repeats or separate records; there may be more than shown.
Target: Ribosomal protein S6 kinase beta-2 (RPS6KB2, Homo sapiens, UniProt Q9UBS0)

Structure (SMILES) | test | conditions | how to read | quantity | result
Cc1cccc(O[C@H]2CCC[C@@H](C(C)CNCc3ccncc3)C2)c1 (relative stereo) | kinome profiling | 1 µM | – | inhibition | 0%
CCn1cc(C(=O)O)c(=O)c2c(N)c(F)c(NC3CCCCC3)cc21 | kinase activity | 0.1 µM, together with: ATP at Km | – | inhibition | 25.9%
C=CC(=O)Nc1cccc(-c2cnc3[nH]cc(C(=O)NC(C)(C)C)c3n2)c1 | kinase activity, inhibitor, kinase panel | 0.1 µM | – | inhibition | -7% and -8%
NC(=O)C[C@H]1CCc2sc3ncnc(O[C@H]4CC[C@H](N5CCOCC5)CC4)c3c21 | enzyme activity, inhibitor | 10 µM | – | inhibition | 4%
Nc1ncc(-c2cc(-c3cnn(CC(F)(F)F)c3)ncc2F)nc1C(=O)NC1CNCC(F)C1 (stereo not shown) | enzyme activity | 1 µM | baseline: DMSO control | remaining activity | 105%
NC(=O)[C@@H](O)C[C@H]1CCc2sc3ncnc(O[C@H]4CC[C@H](N5CCOCC5)CC4)c3c21 | enzyme activity, inhibitor | 10 µM | – | inhibition | 10%
C=CC(=O)N1Cc2nc(-c3cc(-c4cc(Cl)cnc4Cl)c(F)cc3F)n(-c3ccncn3)c2C1 | cell-free assay, inhibitor | 1 µM | – | inhibition | 4.2%
CN1CCN(Cc2ccc(-c3ccc(CO[C@H]4CCC[C@@H]4NC(=O)c4cc(-c5cnn(C)c5)cnc4N)cc3)cc2)CC1 | enzyme activity, inhibitor | 0.1 µM | – | inhibition | 15%
O=C(Cc1ccc(OCc2ccccc2)cc1)NC1(C(=O)O)CCN(C(=O)c2ccc(-c3cccc(Cl)c3)cc2)CC1 | enzyme activity, inhibitor | 10 µM | – | activity vs control | 126%
COCC12C(=O)NC3C4(C(OC)CC1O)C1CC5(O)C(OC)C(O)C(OC(C)=O)(C1C5OC(=O)c1ccccc1)C3(O)C(OC)C24 (stereo not shown) | kinase activity, inhibitor, ProQinase kinase profiling | 25 µM | baseline: control | remaining activity | 44% and 67%
